Results from different studies.
Compare with care: the assays were run in different laboratories. Several values in a cell are separate wells, animals, samples, runs or records.
Target: Protein kinase C iota type (PRKCI, Homo sapiens, UniProt P41743)

SMILES	assay	setting	scale	measurement	value
Cc1cccc(O[C@H]2CCC[C@@H](C(C)CNCc3ccncc3)C2)c1 (relative stereo)	enzyme activity	10 µM		inhibition	-4%
COc1cc(Nc2nccc(-c3cnn4nc(OC)ccc34)n2)cc(C(F)(F)F)c1	binding, competition with immobilised ligand	1 µM		remaining binding	98%
COc1c(Cl)cccc1Nc1c(-c2ccncc2C#C[C@@]2(C)CCCN2C(=O)/C=C/CN(C)C)[nH]c2c1C(=O)NCC2	cell-free assay, competition with immobilised ligand	3 µM		remaining binding	68%
CC(C)=CC1OC(C)(C)C2C=C3C(=O)C(Cl)=CC(O)C3C3C(O)C4OC4C(=O)C132 (stereo not drawn)	cell-free assay, competition with immobilised ligand	10 µM		remaining binding	76%
CN1CC[C@@H](COc2cnc(C#N)cc2-c2ccn3nc(NC(=O)C4CC4)cc3c2)C1	enzyme activity, inhibitor	1 µM		inhibition	-1%
Cc1nc2c(F)cc(-c3nc(Nc4ccc(CNC(=O)CCCCCCC(=O)NO)cc4)ncc3F)cc2n1C(C)C	enzyme activity, inhibitor	1 µM		inhibition	28%
CNC1C[S+]2CC[S+]3CC[S+](C1)[Ru-4]321([N]=C=S)[n]2c3ccc(OC)cc3c3c4c(c5cc(F)c[n+]1c5c32)C(=O)NC4=O (stereo not drawn)	KinomeScan	0.1 µM	relative to: untreated	remaining binding	100%
C=CC(=O)Nc1cccc(-c2cnc3[nH]cc(C(=O)NC(C)(C)C)c3n2)c1	kinase activity	0.1 µM		inhibition	7% and -4%
Cc1cnc2nc1Nc1cccc(c1)COC/C=C/COCc1cc(ccc1OCCN1CCOCC1)N2	binding	0.1 µM		remaining binding	93%
O=C(Cc1ccc(OCc2ccccc2)cc1)NC1(C(=O)O)CCN(C(=O)c2ccc(-c3cccc(Cl)c3)cc2)CC1	enzyme activity, inhibitor	10 µM		activity vs control	122%
COc1c(OCCCN2CCOCC2)ccc2c1N=C(NC(=O)c1cnc(N)nc1)N1CCN=C21	kinase activity, inhibitor	1 µM	relative to: untreated control	remaining activity	114%
O=c1c(-c2ccc(Cl)c(CN3CCOCC3)c2)coc2cc(O)ccc12	enzyme activity, inhibitor	1 µM		remaining activity	98%
NC(=O)C[C@H]1CCc2sc3ncnc(O[C@H]4CC[C@H](N5CCOCC5)CC4)c3c21	enzyme activity, inhibitor	10 µM		inhibition	3%
C=CC(=O)N1CCCC(n2c(=O)c3ncccc3n(Cc3ccc(Oc4ccccc4)cc3)c2=O)C1 (stereo not drawn)	cell-free assay, competition with immobilised ligand	1 µM		remaining binding	92%
Nc1ncc2c(n1)-c1c([nH]c3ccc(C4=CCOCC4)cc13)CCC2	binding, competition with immobilised ligand	1 µM		remaining binding	97%

For quick reference, copied from above:
SMILES	assay	setting	scale	measurement	value
C=CC(=O)N1CCCC(n2c(=O)c3ncccc3n(Cc3ccc(Oc4ccccc4)cc3)c2=O)C1 (stereo not drawn)	cell-free assay, competition with immobilised ligand	1 µM		remaining binding	92%
CN1CC[C@@H](COc2cnc(C#N)cc2-c2ccn3nc(NC(=O)C4CC4)cc3c2)C1	enzyme activity, inhibitor	1 µM		inhibition	-1%
O=C(Cc1ccc(OCc2ccccc2)cc1)NC1(C(=O)O)CCN(C(=O)c2ccc(-c3cccc(Cl)c3)cc2)CC1	enzyme activity, inhibitor	10 µM		activity vs control	122%
